Measured values gathered from unrelated publications.
Compare with care: the assays were run in different laboratories. Several values in a cell are separate wells, animals, samples, runs or records. ± gives the spread as reported.
ptpB: Triple specificity protein phosphatase PtpB (ptpB, Mycobacterium tuberculosis, UniProt I6WXK4)
Sequence of UniProt I6WXK4 (whole entry, looked up): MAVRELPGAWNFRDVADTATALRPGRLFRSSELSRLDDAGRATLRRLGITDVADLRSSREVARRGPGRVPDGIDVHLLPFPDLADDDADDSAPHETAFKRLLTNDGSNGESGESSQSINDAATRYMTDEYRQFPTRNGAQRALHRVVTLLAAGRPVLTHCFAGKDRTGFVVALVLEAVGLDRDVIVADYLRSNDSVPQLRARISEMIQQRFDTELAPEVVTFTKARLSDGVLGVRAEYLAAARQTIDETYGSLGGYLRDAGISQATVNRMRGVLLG
serotonin receptor-like protein: serotonin receptor-like protein (Schistosoma mansoni, UniProt A0A173FEI8)
coaD: Phosphopantetheine adenylyltransferase (coaD, Mycobacterium tuberculosis, UniProt P9WPA5)
Sequence of UniProt Q01959 (whole entry, unmodified, looked up): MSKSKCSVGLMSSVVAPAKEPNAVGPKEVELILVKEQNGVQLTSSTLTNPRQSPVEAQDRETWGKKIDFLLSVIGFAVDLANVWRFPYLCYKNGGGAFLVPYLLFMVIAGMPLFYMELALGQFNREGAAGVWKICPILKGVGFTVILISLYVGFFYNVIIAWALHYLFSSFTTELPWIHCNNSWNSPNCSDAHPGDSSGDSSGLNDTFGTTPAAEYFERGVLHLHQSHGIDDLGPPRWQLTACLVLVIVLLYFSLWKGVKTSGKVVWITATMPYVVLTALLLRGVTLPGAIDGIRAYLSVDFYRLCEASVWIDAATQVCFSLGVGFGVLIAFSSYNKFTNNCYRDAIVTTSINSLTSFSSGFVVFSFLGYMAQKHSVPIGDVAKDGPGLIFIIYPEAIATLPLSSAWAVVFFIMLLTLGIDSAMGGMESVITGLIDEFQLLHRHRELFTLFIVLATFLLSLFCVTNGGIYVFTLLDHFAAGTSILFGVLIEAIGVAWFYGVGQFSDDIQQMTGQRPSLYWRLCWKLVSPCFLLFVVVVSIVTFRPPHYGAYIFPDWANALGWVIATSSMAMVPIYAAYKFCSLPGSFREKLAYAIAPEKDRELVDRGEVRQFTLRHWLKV
Sequence of UniProt P9WPA5 (whole entry, looked up): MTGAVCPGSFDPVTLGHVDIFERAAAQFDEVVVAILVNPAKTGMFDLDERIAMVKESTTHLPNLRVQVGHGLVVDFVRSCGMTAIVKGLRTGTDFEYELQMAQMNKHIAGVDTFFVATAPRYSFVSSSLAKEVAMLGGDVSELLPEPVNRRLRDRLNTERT
Sequence of UniProt P49327 (whole entry, looked up): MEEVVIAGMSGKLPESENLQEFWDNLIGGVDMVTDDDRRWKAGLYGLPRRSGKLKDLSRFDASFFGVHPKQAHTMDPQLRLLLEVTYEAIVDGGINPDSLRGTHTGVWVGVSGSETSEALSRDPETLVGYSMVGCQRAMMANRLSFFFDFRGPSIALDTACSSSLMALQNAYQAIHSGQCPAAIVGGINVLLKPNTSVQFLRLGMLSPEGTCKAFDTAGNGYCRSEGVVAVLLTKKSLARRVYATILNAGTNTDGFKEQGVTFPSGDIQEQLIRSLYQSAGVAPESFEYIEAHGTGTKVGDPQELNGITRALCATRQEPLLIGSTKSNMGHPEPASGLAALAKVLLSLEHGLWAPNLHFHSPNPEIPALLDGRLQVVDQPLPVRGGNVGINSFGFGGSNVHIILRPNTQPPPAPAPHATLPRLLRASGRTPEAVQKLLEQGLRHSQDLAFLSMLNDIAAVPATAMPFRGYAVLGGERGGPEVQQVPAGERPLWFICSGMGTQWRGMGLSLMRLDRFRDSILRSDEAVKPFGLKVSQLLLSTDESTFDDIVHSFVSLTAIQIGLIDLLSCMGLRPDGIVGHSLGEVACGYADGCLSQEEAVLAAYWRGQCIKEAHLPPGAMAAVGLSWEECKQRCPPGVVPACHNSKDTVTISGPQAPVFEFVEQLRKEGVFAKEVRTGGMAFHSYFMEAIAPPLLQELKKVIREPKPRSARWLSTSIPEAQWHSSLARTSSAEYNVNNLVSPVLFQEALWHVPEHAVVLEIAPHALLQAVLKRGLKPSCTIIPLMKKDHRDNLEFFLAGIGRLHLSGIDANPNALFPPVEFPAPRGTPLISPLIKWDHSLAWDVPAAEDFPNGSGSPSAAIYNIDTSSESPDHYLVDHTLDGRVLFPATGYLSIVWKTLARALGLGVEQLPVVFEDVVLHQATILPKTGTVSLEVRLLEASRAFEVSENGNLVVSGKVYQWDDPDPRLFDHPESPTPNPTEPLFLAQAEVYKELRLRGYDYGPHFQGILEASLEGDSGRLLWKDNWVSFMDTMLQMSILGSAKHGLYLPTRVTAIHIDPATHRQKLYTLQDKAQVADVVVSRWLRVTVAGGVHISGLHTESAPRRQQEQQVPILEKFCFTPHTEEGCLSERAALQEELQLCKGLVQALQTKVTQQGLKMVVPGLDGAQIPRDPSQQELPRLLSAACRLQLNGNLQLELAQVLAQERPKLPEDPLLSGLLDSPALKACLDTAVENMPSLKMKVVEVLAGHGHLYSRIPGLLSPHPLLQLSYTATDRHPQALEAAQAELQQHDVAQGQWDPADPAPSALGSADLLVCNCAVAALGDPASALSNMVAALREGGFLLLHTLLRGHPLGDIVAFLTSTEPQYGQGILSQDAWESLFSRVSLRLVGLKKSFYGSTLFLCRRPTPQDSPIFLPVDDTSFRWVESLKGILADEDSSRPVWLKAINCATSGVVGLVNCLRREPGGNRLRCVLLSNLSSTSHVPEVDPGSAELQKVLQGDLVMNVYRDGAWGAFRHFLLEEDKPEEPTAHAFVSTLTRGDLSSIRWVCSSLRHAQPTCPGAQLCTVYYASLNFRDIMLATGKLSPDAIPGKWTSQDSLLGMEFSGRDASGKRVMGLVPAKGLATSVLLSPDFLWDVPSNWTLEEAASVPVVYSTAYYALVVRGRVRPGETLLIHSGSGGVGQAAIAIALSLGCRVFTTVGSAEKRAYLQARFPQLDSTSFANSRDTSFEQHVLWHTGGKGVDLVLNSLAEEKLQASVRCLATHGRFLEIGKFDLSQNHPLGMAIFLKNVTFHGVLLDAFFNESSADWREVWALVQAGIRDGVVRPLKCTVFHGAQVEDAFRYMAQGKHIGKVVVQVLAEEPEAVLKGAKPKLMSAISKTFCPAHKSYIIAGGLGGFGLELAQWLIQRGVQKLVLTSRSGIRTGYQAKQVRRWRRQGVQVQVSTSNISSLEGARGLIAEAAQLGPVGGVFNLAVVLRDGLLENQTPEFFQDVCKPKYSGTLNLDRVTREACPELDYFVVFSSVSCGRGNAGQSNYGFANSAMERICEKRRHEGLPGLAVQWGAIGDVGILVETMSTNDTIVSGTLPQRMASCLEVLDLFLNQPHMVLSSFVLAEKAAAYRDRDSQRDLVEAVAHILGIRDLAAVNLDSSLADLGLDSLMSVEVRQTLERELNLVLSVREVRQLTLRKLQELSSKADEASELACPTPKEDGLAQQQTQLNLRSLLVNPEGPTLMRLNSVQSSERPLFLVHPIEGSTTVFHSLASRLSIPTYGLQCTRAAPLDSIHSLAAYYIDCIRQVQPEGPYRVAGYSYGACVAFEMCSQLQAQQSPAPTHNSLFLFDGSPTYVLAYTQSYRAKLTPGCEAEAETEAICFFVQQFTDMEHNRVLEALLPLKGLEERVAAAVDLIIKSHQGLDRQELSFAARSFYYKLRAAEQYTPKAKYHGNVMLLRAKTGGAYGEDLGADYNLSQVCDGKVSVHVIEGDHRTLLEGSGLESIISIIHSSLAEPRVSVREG
Sequence of UniProt P40939 (whole entry, looked up): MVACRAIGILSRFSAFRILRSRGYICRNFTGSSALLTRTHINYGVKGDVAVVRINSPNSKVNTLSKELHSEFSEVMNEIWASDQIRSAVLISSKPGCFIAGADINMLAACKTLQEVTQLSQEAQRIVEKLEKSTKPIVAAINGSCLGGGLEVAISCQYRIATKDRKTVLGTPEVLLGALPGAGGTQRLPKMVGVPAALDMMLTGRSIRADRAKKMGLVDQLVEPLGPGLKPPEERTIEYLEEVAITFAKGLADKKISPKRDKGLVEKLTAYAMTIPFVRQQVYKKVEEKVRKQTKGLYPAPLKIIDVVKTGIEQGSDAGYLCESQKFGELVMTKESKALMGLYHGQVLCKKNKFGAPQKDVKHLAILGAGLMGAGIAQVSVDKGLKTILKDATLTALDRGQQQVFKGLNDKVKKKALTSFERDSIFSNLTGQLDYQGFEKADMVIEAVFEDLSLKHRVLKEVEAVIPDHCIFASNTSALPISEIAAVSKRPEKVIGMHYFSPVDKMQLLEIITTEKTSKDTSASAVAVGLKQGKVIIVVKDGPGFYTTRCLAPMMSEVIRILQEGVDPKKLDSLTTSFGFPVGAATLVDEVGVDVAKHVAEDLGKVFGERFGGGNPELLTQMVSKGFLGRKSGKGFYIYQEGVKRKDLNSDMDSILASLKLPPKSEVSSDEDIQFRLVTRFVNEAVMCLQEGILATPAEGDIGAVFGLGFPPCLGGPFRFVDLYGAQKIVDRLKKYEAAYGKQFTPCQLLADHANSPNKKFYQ
Sequence of UniProt P97678 (whole entry, looked up): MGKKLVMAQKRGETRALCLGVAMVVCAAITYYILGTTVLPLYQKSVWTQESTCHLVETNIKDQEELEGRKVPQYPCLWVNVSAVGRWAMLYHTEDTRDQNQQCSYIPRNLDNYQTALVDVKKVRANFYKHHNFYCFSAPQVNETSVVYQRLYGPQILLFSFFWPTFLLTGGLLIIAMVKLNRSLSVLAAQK
Sequence of UniProt P29371 (whole entry, looked up): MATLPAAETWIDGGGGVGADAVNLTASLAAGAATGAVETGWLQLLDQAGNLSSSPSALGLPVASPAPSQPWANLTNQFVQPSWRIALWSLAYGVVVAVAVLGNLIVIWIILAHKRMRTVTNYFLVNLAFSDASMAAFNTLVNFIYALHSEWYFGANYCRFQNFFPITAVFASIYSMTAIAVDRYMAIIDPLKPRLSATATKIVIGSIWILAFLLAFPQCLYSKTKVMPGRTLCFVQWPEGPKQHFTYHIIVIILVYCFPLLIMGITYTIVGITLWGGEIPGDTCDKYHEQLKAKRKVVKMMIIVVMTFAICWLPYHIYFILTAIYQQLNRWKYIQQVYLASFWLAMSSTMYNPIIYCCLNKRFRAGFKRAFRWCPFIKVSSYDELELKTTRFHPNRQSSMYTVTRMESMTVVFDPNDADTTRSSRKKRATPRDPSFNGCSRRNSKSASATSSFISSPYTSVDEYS

SMILES	tested on	test	test system	setting	how to read	endpoint	value
c1ccc2cc([C@]34CNC[C@H]3C4)ccc2c1	SLC6A3 (Homo sapiens, UniProt Q01959, F326A)	inhibitor, [3H]dopamine uptake		10 nM, F326A mutant	reference: no inhibitor	dopamine uptake	111% and 97.8% and 112%
CN1CC[C@@]2(C)c3cc(OC(=O)Nc4ccccc4)ccc3N(C)[C@@H]12	human nicotinic α2β4 receptor	radioligand binding		10 µM, with: [3H]epibatidine		inhibition	0%
O=C1Nc2ccc(S(=O)(=O)N3CCOCC3)c3cccc1c23	ptpB	enzyme activity, inhibitor		concentration not given		activity	inactive
COc1ccc2[nH]cc(CCN(C)C)c2c1	serotonin receptor-like protein	cAMP level, agonist, GloSensor luminescence			reference: 5-HT maximal response	Emax	4%
COC(=O)C[C@@H]1N=C(c2ccc(F)c(Cl)c2)c2cc(OC)ccc2-n2c(C)nnc21	BRD4 and BRD2 full-length, human	binding, SPR			reference: BRD4 over BRD2, higher = BRD4-selective	selectivity ratio	~2.6 fold
CCCCCCCC[C@H]1O[C@H]1C/C=C/C=C/[C@H](O)CC(=O)NC1=C[C@](C)(CC)OC1=O	Na(+)-translocating NADH-quinone reductase subunit B, whole Na+-NQR complex (nqrB, Vibrio cholerae serotype O1, UniProt Q9KPS2)	isothermal titration calorimetry		20 °C		ΔH	-35 ± 0.96 kcal/mol
O=C(O)c1cnn(-c2ccccc2)c1OCCc1c[nH]c2ccccc12	coaD	ITC		concentration not given	ligand per protomer	binding stoichiometry	0.7
COc1ccc2[nH]cc(CCN)c2c1	serotonin receptor-like protein	cAMP level, agonist, GloSensor luminescence			reference: 5-HT maximal response	Emax	49 ± 11%
COc1ccc(N2C(=O)N(c3c(C)cccc3Cl)Cc3cnc(Nc4ccc(C5CCN(C)CC5)cc4OC)nc32)nc1	CDK7 (Homo sapiens, UniProt P50613)	kinase activity		0.5 µM		inhibition	-1.19%
Oc1ccc2c3c1O[C@H]1[C@@H](O)CC[C@@]4(O)[C@@H](C2)N(CC2CCC2)CC[C@]314	GPR52 (Homo sapiens, UniProt Q9Y2T5)	β-arrestin recruitment, TANGO luminescence		concentration not given	reference: basal luminescence	log2 fold change	-0.09
C=CCN1CC[C@]23c4c5ccc(O)c4O[C@H]2C(=O)CC[C@]3(O)[C@H]1C5	TACR3 (Homo sapiens, UniProt P29371)			concentration not given		inhibition	16.3%
O=C(O)c1cnn(-c2ccccc2)c1OCCCc1c[nH]c2ccccc12	coaD	ITC		concentration not given	ligand per protomer	binding stoichiometry	0.6
C[C@H]1CN(c2n[nH]c3nc(N[C@H]4CC[C@H](NS(=O)(=O)CCC(F)(F)F)CC4)ncc23)CCO1	HADHA (Homo sapiens, UniProt P40939)	inhibitor, Kinobeads competition profiling		0.032 µM	reference: vehicle	relative abundance	1.05
CO[C@H]1/C=C/O[C@@]2(C)Oc3c(C)c(O)c4c(O)c(c(/C=N/N5CCN(C6CCCC6)CC5)c(O)c4c3C2=O)NC(=O)/C(C)=C\C=C\[C@H](C)[C@H](O)[C@@H](C)[C@@H](O)[C@@H](C)[C@H](OC(C)=O)[C@@H]1C	dppA (Mycobacterium tuberculosis, UniProt I6X811)	thermal shift		dose response		thermal stabilization	> 2 °C
CN[C@@]1(c2ccccc2Cl)CCCCC1=O	sigma receptor	radioligand binding, agonist, radioligand displacement		30 µM		inhibition	33%
[2H]c1c([2H])c([C@]2([2H])CCCN2C(=O)C(C)(C)Oc2ccc3cn[nH]c3c2)c([2H])c([2H])c1C([2H])([2H])[2H]	CAMK1G (Homo sapiens, UniProt Q96NX5)	KINOMEscan		1 µM	reference: DMSO control	remaining binding	92%
O=C(c1ccc(Cl)cc1)N1CCN2C(=O)N(OC(=O)N3CCOc4ccccc43)C(=O)C2C1 (stereo not shown)	Fatty acid synthase (FASN, Homo sapiens, UniProt P49327)	MS-based ABPP	SW-620 conditioned medium	10 µM, 1 h, 37 °C	reference: compound over DMSO, lower = more inhibition	mean protein ratio	0.98
COc1ccccc1C(=O)NC1CCCN(Cc2cccc(-c3ccc(C)c(Cl)c3)c2)C1 (stereo not shown)	Vero-E6	CellTiter-Glo ATP		72 h, first round 5-point	reference: DMSO 0%, hyamine -100%, more negative, more toxic	maximum response	-12.2%
CNCCc1c[nH]c2ccccc12	serotonin receptor-like protein	cAMP level, agonist, GloSensor luminescence			reference: 5-HT maximal response	Emax	15 ± 1%
O=C1NC(=O)N(c2ccc(F)cc2)C(=O)/C1=C/c1cc(Br)ccc1OCc1cccc([N+](=O)[O-])c1	Calcium-activated potassium channel subunit beta-1, with BK alpha subunit (Kcnmb1, Rattus norvegicus, UniProt P97678)	BK channel current	CHO with alpha and beta1			Hill coefficient	0.49 ± 0.12
COC(=O)[C@@H](NC(=O)c1nn(Cc2ccc(F)cc2)c2ccccc12)C(C)(C)C	Cannabinoid receptor 1, with Gi3 (CNR1, Homo sapiens, UniProt P21554)	GTP turnover, agonist, item: Gi3 Gα subtype				maximal efficacy	133%
O=C1Nc2ccc(S(=O)(=O)NCc3ccccc3)c3cccc1c23	ptpB	enzyme activity, inhibitor		concentration not given		activity	inactive
COc1ccc2c(c1)[nH]c1c(C)nccc12	Dyrk1a (Rattus norvegicus, UniProt Q63470)	enzyme activity		2 µM		remaining activity	9.6 ± 5.2%
O=C1C=CC(=O)c2ccccc21	Reaction center protein L chain, QB site (pufL, Cereibacter sphaeroides, UniProt P0C0Y8)		Rhodobacter sphaeroides, reaction centres	with: kBP 0.4 s^-1		free energy difference	520 meV
O=C1Nc2ccc(S(=O)(=O)N(CCO)CCO)c3cccc1c23	ptpB	enzyme activity, inhibitor		concentration not given		activity	inactive
CC[C@H](C)[C@H](NC(=O)[C@H](Cc1ccccc1)NC(=O)[C@H](CCC(=O)O)NC(=O)[C@H](CCCNC(=N)N)NC(=O)[C@H](C)NC(=O)[C@H](C)NC(=O)[C@H](CCC(N)=O)NC(=O)[C@H](CCC(=O)O)NC(=O)[C@H](CCC(=O)O)NC(=O)[C@H](CC(C)C)NC(=O)[C@H](Cc1ccc(O)cc1)NC(=O)[C@H](CO)NC(=O)[C@H](CO)NC(=O)[C@@H](NC(=O)[C@H](CC(=O)O)NC(=O)[C@H](CO)NC(=O)[C@@H](NC(=O)[C@H](Cc1ccccc1)NC(=O)[C@@H](NC(=O)CNC(=O)[C@H](CCC(=O)O)NC(=O)[C@H](C)NC(=O)CCc1c[nH]cn1)[C@@H](C)O)[C@@H](C)O)C(C)C)C(=O)N[C@@H](C)C(=O)N[C@@H](Cc1c[nH]c2ccccc12)C(=O)N[C@@H](CC(C)C)C(=O)N[C@H](C(=O)N[C@@H](CCCNC(=N)N)C(=O)NCC(=O)N[C@@H](CCCNC(=N)N)C(=O)N[C@@H](CCCCNC(=O)COCCOCCNC(=O)COCCOCCNC(=O)CC[C@H](NC(=O)CCCCCCCCCCCCCCCCC(=O)O)C(=O)O)C(=O)NCC(=O)NCC(=O)N[C@@H](CO)C(=O)N[C@@H](CCCCNc1c(NCCCCCN(O)C(=O)CCC(=O)NCCCCCN(O)C(=O)CCC(=O)NCCCCCN(O)C(C)=O)c(=O)c1=O)C(=O)O)C(C)C [zirconium-89 labelled]			rat, blood	iv, 3 nmol/kg, 72 h, ex vivo		tissue uptake	0.04 %ID/g
O=C(NCCCN1CCCCC1)c1cc(Sc2ccc(Cl)cc2)nc2ccccc12	Vero-E6	CellTiter-Glo ATP		72 h, second round 5-point	reference: DMSO 0%, hyamine -100%, more negative, more toxic	maximum response	-6%
O=C1Nc2ccc(S(=O)(=O)NCCO)c3cccc1c23	ptpB	enzyme activity, inhibitor		concentration not given		activity	inactive

Some of these lines once more:
SMILES	tested on	test	test system	setting	how to read	endpoint	value
O=C1Nc2ccc(S(=O)(=O)N(CCO)CCO)c3cccc1c23	ptpB	enzyme activity, inhibitor		concentration not given		activity	inactive
CC[C@H](C)[C@H](NC(=O)[C@H](Cc1ccccc1)NC(=O)[C@H](CCC(=O)O)NC(=O)[C@H](CCCNC(=N)N)NC(=O)[C@H](C)NC(=O)[C@H](C)NC(=O)[C@H](CCC(N)=O)NC(=O)[C@H](CCC(=O)O)NC(=O)[C@H](CCC(=O)O)NC(=O)[C@H](CC(C)C)NC(=O)[C@H](Cc1ccc(O)cc1)NC(=O)[C@H](CO)NC(=O)[C@H](CO)NC(=O)[C@@H](NC(=O)[C@H](CC(=O)O)NC(=O)[C@H](CO)NC(=O)[C@@H](NC(=O)[C@H](Cc1ccccc1)NC(=O)[C@@H](NC(=O)CNC(=O)[C@H](CCC(=O)O)NC(=O)[C@H](C)NC(=O)CCc1c[nH]cn1)[C@@H](C)O)[C@@H](C)O)C(C)C)C(=O)N[C@@H](C)C(=O)N[C@@H](Cc1c[nH]c2ccccc12)C(=O)N[C@@H](CC(C)C)C(=O)N[C@H](C(=O)N[C@@H](CCCNC(=N)N)C(=O)NCC(=O)N[C@@H](CCCNC(=N)N)C(=O)N[C@@H](CCCCNC(=O)COCCOCCNC(=O)COCCOCCNC(=O)CC[C@H](NC(=O)CCCCCCCCCCCCCCCCC(=O)O)C(=O)O)C(=O)NCC(=O)NCC(=O)N[C@@H](CO)C(=O)N[C@@H](CCCCNc1c(NCCCCCN(O)C(=O)CCC(=O)NCCCCCN(O)C(=O)CCC(=O)NCCCCCN(O)C(C)=O)c(=O)c1=O)C(=O)O)C(C)C [zirconium-89 labelled]			rat, blood	iv, 3 nmol/kg, 72 h, ex vivo		tissue uptake	0.04 %ID/g
O=C(NCCCN1CCCCC1)c1cc(Sc2ccc(Cl)cc2)nc2ccccc12	Vero-E6	CellTiter-Glo ATP		72 h, second round 5-point	reference: DMSO 0%, hyamine -100%, more negative, more toxic	maximum response	-6%
